Experimental data from different studies.
Every numbered part comes from another study and shows a few of its results, in no order. Substitutions count along the parent as printed.

Set 1 — target: CCNB1, cyclin fold, Cln2 fusion (human); method: yeast growth competition, sequencing; matrix: yeast; notes: weak parent motif; relative to: not given; reading: higher = stronger binding
Starting sequence: BRCA2 docking peptide (human); CKKRRALDFLSRL
Variant	normalised enrichment score
R5A	0.854
R5K F9L	0.422
L13A	0.975
L10A	0.986
R12A	1.24
L7A	0.659
F9A	0.803

Set 2 — method: protein-binding microarray; molecule type: double-stranded DNA, one strand shown; matrix: in vitro; tested at: 250 nM; notes: 60-bp whole probe; added: salmon DNA 0.4 mg/ml; relative to: random background probes; reading: higher = stronger binding; shared flanks, not repeated: GCCTAGCAC … GTCTTGATTCGCTTGACGCTGCTG
Target: Interferon regulatory factor 7, full length, phosphomimetic (IRF7, Homo sapiens, UniProt Q92985, residues 1-503, S101K/S471D/S472D/S475D/S476D/S477D/S483D/S484D/S487D)
Residues (chain): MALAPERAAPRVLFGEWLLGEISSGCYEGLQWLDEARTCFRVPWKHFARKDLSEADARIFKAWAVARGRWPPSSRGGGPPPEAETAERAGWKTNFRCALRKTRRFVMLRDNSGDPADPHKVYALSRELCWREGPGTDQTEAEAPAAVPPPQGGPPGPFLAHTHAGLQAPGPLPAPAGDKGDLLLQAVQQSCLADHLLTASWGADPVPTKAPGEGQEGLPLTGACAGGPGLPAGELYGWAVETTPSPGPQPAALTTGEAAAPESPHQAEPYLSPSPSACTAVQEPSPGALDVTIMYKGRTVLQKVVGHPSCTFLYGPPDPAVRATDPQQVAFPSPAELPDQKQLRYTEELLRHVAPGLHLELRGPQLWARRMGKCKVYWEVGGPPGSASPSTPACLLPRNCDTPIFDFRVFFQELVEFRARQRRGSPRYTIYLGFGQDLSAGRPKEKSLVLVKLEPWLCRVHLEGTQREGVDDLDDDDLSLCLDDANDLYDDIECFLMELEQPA
Sequence	log fluorescence [z-score]
TTAGGTATCGGACTCGGTTAGTGCTAG	1.37
TTTTGTTGTTTTTTGGTTTCGTGCTAG	1.97
TTAGATTCCAGTTTCGATAAGTGCTAG	6.51
TTAGATCTCAGCCTCGATTAGTGCTAG	0.144
GGATTTCAGTTTCTCTTTCCGTGCTAG	6.46
ATAACACTCTTCTTTTGCTAAGTGCTA	0.595
ATAGATATCAGACTGGATTAGTGCTAG	-0.0897
CACACCCGGCTCCTCTGCCAGTGCTAG	-0.31
TTGGATATCAGTATCGATTAGTGCTAG	0.464
GACGGTTTCGGTTCCGCGACGTGCTAG	12.8
ATAGGTTTCGGTTTCGGTTAGTGCTAG	15.5
GACGAACCGGGGACTGGAGACGTGCTA	-0.217
GACGAACTGAGTATCGTGACGTGCTAG	-0.29
TTAGATATCCTTATCCTTTAGTGCTAG	0.228
TTAGGACTGCGTTTCGGTTAGTGCTAG	2.45
TTAGGTCTCGGTCTCGCTTAGTGCTAG	2.08
GACGGTTTCGGGACCGGGGACGTGCTA	3.7
TCATGTCTGATTATTTAACTGTGCTAG	-0.0102
TTATAACTGAGTTTCGATTAGTGCTAG	8.2
GACGGTTTCGACTATCGGGATGTGCTA	5.42
GACGATATCAGTTGCGAGACGTGCTAG	-0.164
GACGAACTGAGACTAGAGACGTGCTAG	0.241

Set 3 — method: RNA Bind-n-Seq; molecule type: RNA; matrix: in vitro; tested at: not given; relative to: input RNA pool; reading: higher = stronger binding
Target: RING finger protein unkempt homolog, zinc fingers 1-6, GST-SBP tag (UNK, Homo sapiens, UniProt Q9C0B0, residues 30-357)
Notes: RNA with constant flanks, human and mouse sites, ends assumed
Shared flanks, not repeated: GGGAGUUCUACAGUCCGACGAUC … CAACAGAGGAUUGAGCAUCA
Target sequence (chain): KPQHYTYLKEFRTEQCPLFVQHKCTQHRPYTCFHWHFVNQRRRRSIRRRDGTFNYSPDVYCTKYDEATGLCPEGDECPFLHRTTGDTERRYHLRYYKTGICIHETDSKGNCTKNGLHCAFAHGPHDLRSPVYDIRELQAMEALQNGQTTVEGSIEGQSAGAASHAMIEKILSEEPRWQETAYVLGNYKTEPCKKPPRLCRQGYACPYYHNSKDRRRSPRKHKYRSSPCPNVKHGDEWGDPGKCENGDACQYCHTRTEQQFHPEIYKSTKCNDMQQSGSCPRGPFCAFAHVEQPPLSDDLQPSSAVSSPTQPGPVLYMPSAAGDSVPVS
Sequence	bound/input enrichment [ratio]
AGAGAAAUGGAUGGUGAUGUAGAGACCAUGCAGCAGACAAUAGAAGACUUGGAGGUAGCCAGUGACCCUUUAUAUCUGCCUGACCCGGAUCCCACCAAGUUUCCCAUCAAUCGAAAUUUA	0.77
UUUCUUAAAUCUCCCUAAAUCAAAGUGGAUGUCACAUACGGAUCUUAAGGAUGGAAGAAUGUAAUGACAUUUGAAAGCUUUACAUAUGUGGUUCCCGACAUUCACCCACAUUUAUCUAUU	0.24
GUUAGACGUGGCCCUGUAUUUGGAAGUCUCUGACGGGUUGACAGUAUUAACACUCAAUUGUAGUUUACAGUAUUUAUACAUGACAGCCAUACAUGACGCCAAGCCAUGGGUUCUCAGUUU	0.262
CGCCUGGACAUGUCCCAGAAUGUGUCCUUGGUCACUGCUGAACUGAGCAAGGACGCCCAGGCGUCAGCCGCCCCUGCAGCACCCUUGCCUGAGCGGAACUCUCUCAGUGCCAUCUUCAAC	0.0509
CAUGUAGUUUGUUUUUAAUUUCAAGCAAAAUCUUACUGUACUUGAAUGUGCCCUGUUUUGUUAGCACACCUAGACUUGCUGUAACUGUACUCAUGUCCCAGUAUGUACGUUCUUUCUAUG	9.46
GCUCUUGCCUGCAAGUUUAGCUUGUGUUAAGGCAUUUGGGGGGACCAUUUAACUUACUGCUAGUUUGGGAUGUCUUUGUGAGAGUAGGGUUGGCACCAAUGCAGUAUGGAAGGCUAGGAG	0.855
UCUGGUGGUGAAUCCUCCAUAGUCUGGAGAUCUCAGCCCUGCUGAGCUGAUGAUGCUGACUAUAGGAGAUGUUAUUAAACAACUGAUUGAAGCCCACGAGCAGGGGAAAGACAUCGAUCU	0.163
UCACUUAAUUUGUAUAAAUGUUAUGAGUGGAGAGACAUGUACAUGUUAAAAGCAUGUUGCAUUAUAUAUUCAUUUUUUAAACUCUAUAAAUGUUAAGAAUAAUAUAAUUGCAGAAAUAUU	0.244
GUCAGCCAGUCACUACAGCAUUACCUGGAGCUGGGACGGCAAGAACUUUUCAAGAUUCUACAUAGUAUUUUGUUAAAUGGCGAAACUCGUGAAGCGGCUCUCAGCUACAUGGCGGCCCUU	1.68
GAGUGCCUGAGCAACAUCCGCGAGUUCCUGCGCGGCUGCGGGGCUUCCCUGCGGCUGGAGACGUUUGAUGCAAAUGAUUUGUAUCAGGGGCAGAAUUUUAACAAGGUCCUCAGUUCCUUA	0.138
CGAGCGAGAAGGCACGGAGUCGCCGCGGAGCGCAGGUUGCUUUCCUGUUGCAUCUUUGAUAUCAUUUCCUAGACUCUACUCCAUGAUUUAACUUGAAAUUCUGAAAUGAAGAUGGAGGAG	0.19

Set 4 — method: universal PBM; molecule type: double-stranded DNA, one strand shown; matrix: in vitro; tested at: not given; reading: higher = stronger binding
Target: Sal-like protein 4, full length isoform B (SALL4, Homo sapiens, UniProt Q9UJQ4-2, residues 1-616)
Notes: 8-mer, flanks averaged, mean of replicates
Residues (chain): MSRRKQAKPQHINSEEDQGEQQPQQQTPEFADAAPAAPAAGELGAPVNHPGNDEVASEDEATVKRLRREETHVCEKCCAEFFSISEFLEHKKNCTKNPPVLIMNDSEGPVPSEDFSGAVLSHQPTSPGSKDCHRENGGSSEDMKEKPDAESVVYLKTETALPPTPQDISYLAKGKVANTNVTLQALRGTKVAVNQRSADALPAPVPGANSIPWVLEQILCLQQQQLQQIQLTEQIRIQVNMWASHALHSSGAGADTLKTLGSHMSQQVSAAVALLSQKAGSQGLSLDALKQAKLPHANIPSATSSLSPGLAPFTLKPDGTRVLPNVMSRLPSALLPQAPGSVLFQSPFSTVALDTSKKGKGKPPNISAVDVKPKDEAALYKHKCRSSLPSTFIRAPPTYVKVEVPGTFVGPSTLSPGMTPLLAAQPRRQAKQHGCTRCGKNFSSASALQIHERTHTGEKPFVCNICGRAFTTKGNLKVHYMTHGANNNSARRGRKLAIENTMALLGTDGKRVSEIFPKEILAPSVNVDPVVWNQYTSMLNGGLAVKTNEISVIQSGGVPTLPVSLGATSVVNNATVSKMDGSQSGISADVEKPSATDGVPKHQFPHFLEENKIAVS
Sequence	E-score
ACAAACCG	-0.0618
AGAAATCG	-0.0262
ACGACTCG	-0.257
CACGAAGA	0.0176
CGCCCAGC	-0.277
CGGTTGCC	-0.284
AGGTAGTG	-0.0274
AGTTTTGG	0.15
ACATCATC	0.103
CTGCAAAG	-0.152
GCATCTCA	0.0646
GAGTCAAA	7e-05
TAGAGACA	0.0572
GTCCGAAC	-0.202
CCGAAGCG	-0.276
GGCGCAAC	-0.273
AATTTAAC	0.209
GACCTTCC	-0.136
AGTGCCTG	-0.105
GTTTTGTA	0.17
AGGCATCG	-0.189
ACGCGATA	0.00515
TTATTGAA	0.397
AAGTTCTA	0.132
GCTCTGGA	-0.0442

For quick reference, copied from above (set 3):
Sequence	bound/input enrichment [ratio]
CGCCUGGACAUGUCCCAGAAUGUGUCCUUGGUCACUGCUGAACUGAGCAAGGACGCCCAGGCGUCAGCCGCCCCUGCAGCACCCUUGCCUGAGCGGAACUCUCUCAGUGCCAUCUUCAAC	0.0509
AGAGAAAUGGAUGGUGAUGUAGAGACCAUGCAGCAGACAAUAGAAGACUUGGAGGUAGCCAGUGACCCUUUAUAUCUGCCUGACCCGGAUCCCACCAAGUUUCCCAUCAAUCGAAAUUUA	0.77
GAGUGCCUGAGCAACAUCCGCGAGUUCCUGCGCGGCUGCGGGGCUUCCCUGCGGCUGGAGACGUUUGAUGCAAAUGAUUUGUAUCAGGGGCAGAAUUUUAACAAGGUCCUCAGUUCCUUA	0.138
CAUGUAGUUUGUUUUUAAUUUCAAGCAAAAUCUUACUGUACUUGAAUGUGCCCUGUUUUGUUAGCACACCUAGACUUGCUGUAACUGUACUCAUGUCCCAGUAUGUACGUUCUUUCUAUG	9.46
UCUGGUGGUGAAUCCUCCAUAGUCUGGAGAUCUCAGCCCUGCUGAGCUGAUGAUGCUGACUAUAGGAGAUGUUAUUAAACAACUGAUUGAAGCCCACGAGCAGGGGAAAGACAUCGAUCU	0.163
UCACUUAAUUUGUAUAAAUGUUAUGAGUGGAGAGACAUGUACAUGUUAAAAGCAUGUUGCAUUAUAUAUUCAUUUUUUAAACUCUAUAAAUGUUAAGAAUAAUAUAAUUGCAGAAAUAUU	0.244
CGAGCGAGAAGGCACGGAGUCGCCGCGGAGCGCAGGUUGCUUUCCUGUUGCAUCUUUGAUAUCAUUUCCUAGACUCUACUCCAUGAUUUAACUUGAAAUUCUGAAAUGAAGAUGGAGGAG	0.19
GCUCUUGCCUGCAAGUUUAGCUUGUGUUAAGGCAUUUGGGGGGACCAUUUAACUUACUGCUAGUUUGGGAUGUCUUUGUGAGAGUAGGGUUGGCACCAAUGCAGUAUGGAAGGCUAGGAG	0.855
GUUAGACGUGGCCCUGUAUUUGGAAGUCUCUGACGGGUUGACAGUAUUAACACUCAAUUGUAGUUUACAGUAUUUAUACAUGACAGCCAUACAUGACGCCAAGCCAUGGGUUCUCAGUUU	0.262
UUUCUUAAAUCUCCCUAAAUCAAAGUGGAUGUCACAUACGGAUCUUAAGGAUGGAAGAAUGUAAUGACAUUUGAAAGCUUUACAUAUGUGGUUCCCGACAUUCACCCACAUUUAUCUAUU	0.24
GUCAGCCAGUCACUACAGCAUUACCUGGAGCUGGGACGGCAAGAACUUUUCAAGAUUCUACAUAGUAUUUUGUUAAAUGGCGAAACUCGUGAAGCGGCUCUCAGCUACAUGGCGGCCCUU	1.68
